Measurements gathered from unrelated publications.
A part holds a random share of what one study measured. Several values in a cell are separate wells, animals, samples, runs or records.
UniProt P20813, sequence (whole entry, looked up): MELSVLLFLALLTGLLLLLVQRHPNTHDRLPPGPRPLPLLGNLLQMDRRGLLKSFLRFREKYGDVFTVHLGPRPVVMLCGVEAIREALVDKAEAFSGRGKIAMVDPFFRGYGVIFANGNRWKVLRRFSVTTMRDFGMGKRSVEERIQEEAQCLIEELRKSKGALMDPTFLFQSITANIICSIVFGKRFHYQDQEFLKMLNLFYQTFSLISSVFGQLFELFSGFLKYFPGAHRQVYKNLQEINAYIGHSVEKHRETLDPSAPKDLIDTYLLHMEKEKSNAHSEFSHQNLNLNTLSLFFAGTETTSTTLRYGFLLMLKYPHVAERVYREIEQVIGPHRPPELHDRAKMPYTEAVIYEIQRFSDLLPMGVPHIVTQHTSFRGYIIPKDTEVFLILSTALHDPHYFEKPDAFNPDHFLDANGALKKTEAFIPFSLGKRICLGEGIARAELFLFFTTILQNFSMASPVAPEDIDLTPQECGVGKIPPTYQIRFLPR

Sample 1
Target: Sodium-dependent neutral amino acid transporter B(0)AT1 (SLC6A19, Homo sapiens, UniProt Q695T7)
UniProt Q695T7, sequence (whole entry, looked up): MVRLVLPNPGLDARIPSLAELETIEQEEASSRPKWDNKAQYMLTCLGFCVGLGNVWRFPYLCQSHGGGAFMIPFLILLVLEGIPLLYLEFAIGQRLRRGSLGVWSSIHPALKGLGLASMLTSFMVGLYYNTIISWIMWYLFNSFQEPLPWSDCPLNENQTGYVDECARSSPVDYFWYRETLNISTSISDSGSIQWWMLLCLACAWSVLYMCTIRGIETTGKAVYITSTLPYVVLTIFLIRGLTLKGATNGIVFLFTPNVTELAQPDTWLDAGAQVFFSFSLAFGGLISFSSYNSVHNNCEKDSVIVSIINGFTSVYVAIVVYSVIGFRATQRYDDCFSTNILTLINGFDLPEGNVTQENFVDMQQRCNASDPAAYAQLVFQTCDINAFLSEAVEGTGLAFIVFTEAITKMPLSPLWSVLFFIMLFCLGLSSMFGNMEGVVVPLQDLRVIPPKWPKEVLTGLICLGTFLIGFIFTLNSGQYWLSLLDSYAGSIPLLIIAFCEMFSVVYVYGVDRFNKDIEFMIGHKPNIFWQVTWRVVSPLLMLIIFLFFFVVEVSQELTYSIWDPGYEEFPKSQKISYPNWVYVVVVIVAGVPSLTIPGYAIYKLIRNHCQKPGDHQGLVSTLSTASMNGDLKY
Effect on: membrane potential
Method: FLIPR membrane potential
Cell line: CHO-BC cells
Tested at: concentration not given
Notes: first screen
Relative to: uninhibited control
Structure (SMILES)	normalised transport activity
CCCNC(=O)COc1cc(C)c(Cl)c(C)c1	0.544 and 0.614 and 0.507 and 0.481
Cc1cc(OCC(=O)NCC(C)C)cc(C)c1Cl	0.959 and 0.976 and 0.934 and 1.03 and 0.923
CC(C)NC(=O)COc1ccc(I)cc1	0.513 and 0.694 and 0.464 and 0.644 and 0.522
Cc1cc(OCC(=O)SC(C)C)cc(C)c1Cl	1.33 and 1.1 and 1.29 and 1.06
Cc1cc(OCC(=O)NCCO)cc(C)c1Cl	0.941 and 0.942 and 1.22 and 1.13 and 1.03 and 1.02 and 1.11 and 0.875
CCCCCCCCNC(=O)COc1cc(C)c(Cl)c(C)c1	0.979 and 1.06 and 0.921 and 0.929 and 1.18
Cc1cc(OCC(=O)NC(C)(C)C)cc(C)c1Cl	1.1 and 1.09 and 1.15 and 1.02 and 1.13
CCCCCCNC(=O)COc1cc(C)c(Cl)c(C)c1	1.1 and 1.11 and 1.22 and 1 and 0.983

Sample 2
SMILES: Cn1cc(-c2cccc(CN3CCC4(CC3)COc3c4ccc4c3CN([C@H]3CCC(=O)NC3=O)C4=O)c2)cn1
Effect on: enzyme activity
Sample: human liver microsomes
Relative to: negative control
CYP3A4: Cytochrome P450 3A4 (CYP3A4, Homo sapiens, UniProt P08684)
UniProt P08684, sequence (whole entry, looked up): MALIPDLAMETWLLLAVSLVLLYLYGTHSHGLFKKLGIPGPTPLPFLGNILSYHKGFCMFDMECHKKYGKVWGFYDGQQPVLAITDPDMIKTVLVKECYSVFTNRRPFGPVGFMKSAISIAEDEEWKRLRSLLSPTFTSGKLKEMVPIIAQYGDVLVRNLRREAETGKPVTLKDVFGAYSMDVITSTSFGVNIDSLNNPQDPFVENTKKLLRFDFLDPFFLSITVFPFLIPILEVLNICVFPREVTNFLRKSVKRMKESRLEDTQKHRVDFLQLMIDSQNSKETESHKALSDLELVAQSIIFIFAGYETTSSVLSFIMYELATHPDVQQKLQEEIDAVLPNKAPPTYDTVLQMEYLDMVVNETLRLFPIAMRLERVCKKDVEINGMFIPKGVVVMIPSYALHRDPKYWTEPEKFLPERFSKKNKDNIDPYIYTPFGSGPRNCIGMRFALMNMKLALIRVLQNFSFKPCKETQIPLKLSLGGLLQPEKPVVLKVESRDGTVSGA
target	setting	remaining activity [%]
CYP3A4	0.0137 µM, together with: midazolam substrate	99
CYP3A4	0.0137 µM, together with: testosterone substrate	96.1
Cytochrome P450 2B6 (CYP2B6, Homo sapiens, UniProt P20813)	0.37 µM	84.5

Sample 3
SMILES: Cc1nc(C)c(C=[N+]([O-])C(C)(C)C)nc1C
Notes: unit not given
Relative to: β-actin
target or system	test	test system	setting	protein level
–	western blot, refers to: Nrf2	MPTP mouse model, substantia nigra nuclei	30 mg/kg	98.5 and 133 and 99
–	Western blot, refers to: PGC-1α	primary midbrain neurons, rat	100 µM, together with: MPP+	143 and 81.5 and 115
–	western blot, refers to: MEF2D	MPTP mouse model, substantia nigra nuclei	30 mg/kg	144 and 113 and 181
primary rat midbrain neurons	Western blot, refers to: MEF2D	–	300 µM, together with: MPP+	131 and 139 and 119
primary rat midbrain neurons	Western blot, refers to: SIRT1	–	30 µM, together with: MPP+	78.5 and 115 and 119
–	Western blot, refers to: MEF2D	MPTP-treated mice, substantia nigra cytosol	10 mg/kg	73.6 and 70.4 and 109 and 57.5
–	Western blot, refers to: tyrosine hydroxylase	MPTP mouse model, substantia nigra	90 mg/kg	99.9 and 88.9 and 97.5 and 105
–	Western blot, refers to: TFAM	MPTP-treated mice, substantia nigra cytosol	90 mg/kg	131 and 132 and 124 and 123

Other studies, line by line
Structure (SMILES)	organism	test system	scale	endpoint	value
Cc1ccc2nc3c(c(Nc4ccc(Br)cc4)c2c1)CCC3	Leishmania donovani	THP-1 macrophages, DD8	relative to: THP-1 CC50 over amastigote IC50	selectivity index	4.31

For quick reference, copied from above (sample 2):
target	setting	remaining activity [%]
CYP3A4	0.0137 µM, together with: midazolam substrate	99
CYP3A4	0.0137 µM, together with: testosterone substrate	96.1
